Results gathered from unrelated publications.
Each numbered part is a random draw from the data of one study; scales do not carry over between parts.
Sequence of UniProt Q13163 (whole entry, looked up): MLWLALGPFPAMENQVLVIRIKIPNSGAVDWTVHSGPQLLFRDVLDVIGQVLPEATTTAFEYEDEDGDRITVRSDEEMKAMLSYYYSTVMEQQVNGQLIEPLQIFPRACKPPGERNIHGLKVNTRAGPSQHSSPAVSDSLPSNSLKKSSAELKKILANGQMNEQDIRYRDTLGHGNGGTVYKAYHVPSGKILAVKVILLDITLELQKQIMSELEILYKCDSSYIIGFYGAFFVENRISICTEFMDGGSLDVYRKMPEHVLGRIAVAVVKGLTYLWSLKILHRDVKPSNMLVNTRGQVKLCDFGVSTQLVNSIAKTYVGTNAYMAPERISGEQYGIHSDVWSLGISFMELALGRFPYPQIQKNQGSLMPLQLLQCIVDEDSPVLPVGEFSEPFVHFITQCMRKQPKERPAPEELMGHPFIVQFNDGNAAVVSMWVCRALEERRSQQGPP
Sequence of UniProt P00519 (whole entry, unmodified, looked up): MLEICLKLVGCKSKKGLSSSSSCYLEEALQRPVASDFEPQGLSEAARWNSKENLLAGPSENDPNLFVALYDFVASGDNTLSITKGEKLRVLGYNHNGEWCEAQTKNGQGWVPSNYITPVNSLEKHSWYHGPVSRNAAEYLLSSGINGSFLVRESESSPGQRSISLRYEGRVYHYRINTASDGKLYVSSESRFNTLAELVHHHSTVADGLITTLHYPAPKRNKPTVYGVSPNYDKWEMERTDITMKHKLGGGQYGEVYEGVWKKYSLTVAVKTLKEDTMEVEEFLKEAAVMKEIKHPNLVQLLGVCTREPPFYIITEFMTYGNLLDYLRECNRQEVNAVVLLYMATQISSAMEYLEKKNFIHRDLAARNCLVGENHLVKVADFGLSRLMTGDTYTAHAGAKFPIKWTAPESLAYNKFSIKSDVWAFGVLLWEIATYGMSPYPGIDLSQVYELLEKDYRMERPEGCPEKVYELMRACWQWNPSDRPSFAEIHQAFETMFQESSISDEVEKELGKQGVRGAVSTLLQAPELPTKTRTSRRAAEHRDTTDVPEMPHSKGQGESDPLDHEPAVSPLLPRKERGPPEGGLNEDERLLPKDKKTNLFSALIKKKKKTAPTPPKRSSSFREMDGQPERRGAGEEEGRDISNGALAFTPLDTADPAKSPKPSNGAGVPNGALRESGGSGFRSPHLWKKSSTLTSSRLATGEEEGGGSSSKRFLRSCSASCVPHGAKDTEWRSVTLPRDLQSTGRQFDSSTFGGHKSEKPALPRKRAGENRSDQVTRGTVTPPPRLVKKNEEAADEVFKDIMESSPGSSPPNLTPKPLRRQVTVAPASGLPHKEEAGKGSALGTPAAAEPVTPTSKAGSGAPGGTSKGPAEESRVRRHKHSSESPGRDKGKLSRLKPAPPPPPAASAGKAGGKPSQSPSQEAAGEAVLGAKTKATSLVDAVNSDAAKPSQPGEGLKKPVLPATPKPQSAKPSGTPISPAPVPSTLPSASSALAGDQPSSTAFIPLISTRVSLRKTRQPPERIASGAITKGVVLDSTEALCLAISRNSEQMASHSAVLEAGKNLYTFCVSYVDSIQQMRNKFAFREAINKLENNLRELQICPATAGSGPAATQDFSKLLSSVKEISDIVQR
Sequence of UniProt P29320 (whole entry, looked up): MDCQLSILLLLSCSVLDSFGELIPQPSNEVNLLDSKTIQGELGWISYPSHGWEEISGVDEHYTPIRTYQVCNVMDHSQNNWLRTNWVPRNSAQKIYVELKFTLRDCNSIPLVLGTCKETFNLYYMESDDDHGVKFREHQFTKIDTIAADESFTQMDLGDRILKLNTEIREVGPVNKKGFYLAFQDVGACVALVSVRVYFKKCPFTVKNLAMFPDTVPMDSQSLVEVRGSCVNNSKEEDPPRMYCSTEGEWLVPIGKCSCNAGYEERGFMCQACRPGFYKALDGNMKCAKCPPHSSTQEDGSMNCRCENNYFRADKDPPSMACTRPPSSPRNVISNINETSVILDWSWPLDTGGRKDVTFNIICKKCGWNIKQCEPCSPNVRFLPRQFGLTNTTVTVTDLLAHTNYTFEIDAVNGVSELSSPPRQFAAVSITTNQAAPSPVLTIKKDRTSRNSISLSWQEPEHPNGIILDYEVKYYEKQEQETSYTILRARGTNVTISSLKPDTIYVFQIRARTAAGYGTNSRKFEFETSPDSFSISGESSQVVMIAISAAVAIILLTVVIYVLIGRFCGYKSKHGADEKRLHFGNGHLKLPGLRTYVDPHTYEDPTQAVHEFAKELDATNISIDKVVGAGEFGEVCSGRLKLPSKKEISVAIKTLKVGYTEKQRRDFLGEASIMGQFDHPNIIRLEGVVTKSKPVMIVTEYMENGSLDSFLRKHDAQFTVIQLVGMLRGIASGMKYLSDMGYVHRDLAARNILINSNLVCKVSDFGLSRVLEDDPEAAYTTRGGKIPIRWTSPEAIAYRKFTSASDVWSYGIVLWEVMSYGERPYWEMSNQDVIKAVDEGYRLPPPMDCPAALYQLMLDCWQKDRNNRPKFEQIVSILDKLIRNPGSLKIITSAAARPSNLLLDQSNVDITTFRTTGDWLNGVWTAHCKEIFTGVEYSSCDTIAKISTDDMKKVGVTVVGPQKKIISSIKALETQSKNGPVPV
Sequence of UniProt Q16539 (whole entry, looked up): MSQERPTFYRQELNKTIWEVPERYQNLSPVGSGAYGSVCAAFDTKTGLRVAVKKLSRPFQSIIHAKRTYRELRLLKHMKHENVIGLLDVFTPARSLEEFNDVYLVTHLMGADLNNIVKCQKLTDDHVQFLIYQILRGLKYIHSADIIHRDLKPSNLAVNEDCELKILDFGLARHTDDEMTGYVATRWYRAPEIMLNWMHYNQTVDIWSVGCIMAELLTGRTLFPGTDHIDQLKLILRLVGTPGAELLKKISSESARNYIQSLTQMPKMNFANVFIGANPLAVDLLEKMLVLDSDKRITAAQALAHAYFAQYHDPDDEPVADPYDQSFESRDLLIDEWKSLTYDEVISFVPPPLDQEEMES

Sample 1 — technique: competition with immobilised ligand; concentration: 1 µM; measurement: remaining binding
SMILES: CN([C@@H]1CCc2c(CC(=O)O)c3ccccc3n2C1)S(=O)(=O)c1ccc(F)cc1
Dual specificity mitogen-activated protein kinase kinase 5 (MAP2K5, Homo sapiens, UniProt Q13163); cell-free assay: 100%
Ephrin type-A receptor 3 (EPHA3, Homo sapiens, UniProt P29320); cell-free assay: 95%
Phosphatidylinositol 4,5-bisphosphate 3-kinase catalytic subunit alpha isoform (PIK3CA, Homo sapiens, UniProt P42336, C420R); cell-free assay: 100%
Ephrin type-B receptor 4 (EPHB4, Homo sapiens, UniProt P54760); cell-free assay: 95%
Mitogen-activated protein kinase 14 (MAPK14, Homo sapiens, UniProt Q16539); cell-free assay: 100%
Tyrosine-protein kinase ABL1, phosphorylated (ABL1, Homo sapiens, UniProt P00519, E255K); binding: 90%

Sample 2 — technique: RNA Bind-n-Seq; molecule type: RNA; medium: in vitro; concentration: not given; reference: input RNA pool; reading: higher = stronger binding; measurement: bound/input enrichment
Target: RING finger protein unkempt homolog, zinc fingers 1-6, GST-SBP tag (UNK, Homo sapiens, UniProt Q9C0B0, residues 30-357)
Sequence of UniProt Q9C0B0 (30-357, looked up): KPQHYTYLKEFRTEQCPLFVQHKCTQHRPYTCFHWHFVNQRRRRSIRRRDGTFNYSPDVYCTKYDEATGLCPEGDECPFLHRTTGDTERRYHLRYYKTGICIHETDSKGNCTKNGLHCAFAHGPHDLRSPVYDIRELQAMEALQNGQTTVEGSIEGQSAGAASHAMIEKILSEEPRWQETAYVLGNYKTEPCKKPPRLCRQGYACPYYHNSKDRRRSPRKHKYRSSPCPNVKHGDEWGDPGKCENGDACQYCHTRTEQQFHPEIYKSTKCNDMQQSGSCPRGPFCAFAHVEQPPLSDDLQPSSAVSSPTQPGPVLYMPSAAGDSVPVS
Notes: RNA with constant flanks, human and mouse sites, ends assumed
Shared flanks, not repeated: GGGAGUUCUACAGUCCGACGAUC … CAACAGAGGAUUGAGCAUCA
AAAGCAAUUGAGCAGGCCGAUCUCCUGCAGGAGGAUGCAAAAGAAGCUGAAACCCCACGUAGUGUUCUUGAAGAAAUUGGACUGACAUAACUGUCCUCCCUUGCUGAUGACUUCUUGUGG: 0.217 ratio
GGCGAAGCAGCUCCAUCUCAGAAUACAGAAAGCUACGGAGUCCCUGAAGAGCUUUAGACCUGCAGCCCAGGCUUCUUUUGAAGACUAUGUUGUUAACAUAUCGAAACAAACAGAGGUGCU: 0.252 ratio
AAUAGAGGAUUAUAUUCAAUUGAAGUGCUGGAGCUCUUCUGAUAUUAUCAAUUCUCCUUCAUAGACAUUUUAUAAAGCUCUUUUAUGUGAACUCUUGCUUCAUCCAGGCAAGAACGGUGU: 3.28 ratio
CCAUGGGGAUGCUCUGGGGAGUGGCUGGACACUCAGCAUUGCUUCAUUUAUGACUUUGACAAUAGAUAGGCUUCUGGGGGUUUUUGUUUCUGUUUUUUUAAUUUAAUGAUAUUAAAACUU: 0.703 ratio
UGCAAUUGGGUAGUGGACACUUGUUUACAUAAGGGAAGUCGAGAUAACAUGAGUGUUGUAUUAGUUUGCUUUUCAAAUGCCCCCAAGGUCUCAGAGGAAGCCGUGAAGAGAGAUUCAGAG: 0.316 ratio
GAAAUUAAAGAGCCUGAAAGUUUUAAUGCAGCUGCUCAGGAAGCAGAAGCUCCUUAUAUAUCCAUUGCAUGUGAUUUAAUUAAAGAAACAAAGCUCUCCACUGAGCCAAGUCCAGAGUUC: 0.338 ratio
UCCGCACUGGAGAACAUGCUUUUUUUCAACAGUCCUUCUGUGGGCCCCAAUGCUCCCAAGAUAGAGGACUUGAAAUGGCAUUCUGCAUUCUUCAGGAAACAAAUGGGCACUUCCUUGGUU: 0.159 ratio
GCUAUGCAGCUAUAUUCUGUAGAUAGGAAAGUGUCUCAGCCCAUUGAAGGACAUGCAGCUAGCUUUGCACAGUUUAAGAUGGAAGGAAAUGCAGAAGAAUCAACGUUAUUUUGUUUUGCA: 0.948 ratio

Sample 3 — observed: enzyme activity; mode: inhibitor; concentration: 0.5 µM; reference: control; measurement: remaining activity
Target: Fibroblast growth factor receptor 4 (FGFR4, Homo sapiens, UniProt P22455)
Sequence of UniProt P22455 (whole entry, looked up): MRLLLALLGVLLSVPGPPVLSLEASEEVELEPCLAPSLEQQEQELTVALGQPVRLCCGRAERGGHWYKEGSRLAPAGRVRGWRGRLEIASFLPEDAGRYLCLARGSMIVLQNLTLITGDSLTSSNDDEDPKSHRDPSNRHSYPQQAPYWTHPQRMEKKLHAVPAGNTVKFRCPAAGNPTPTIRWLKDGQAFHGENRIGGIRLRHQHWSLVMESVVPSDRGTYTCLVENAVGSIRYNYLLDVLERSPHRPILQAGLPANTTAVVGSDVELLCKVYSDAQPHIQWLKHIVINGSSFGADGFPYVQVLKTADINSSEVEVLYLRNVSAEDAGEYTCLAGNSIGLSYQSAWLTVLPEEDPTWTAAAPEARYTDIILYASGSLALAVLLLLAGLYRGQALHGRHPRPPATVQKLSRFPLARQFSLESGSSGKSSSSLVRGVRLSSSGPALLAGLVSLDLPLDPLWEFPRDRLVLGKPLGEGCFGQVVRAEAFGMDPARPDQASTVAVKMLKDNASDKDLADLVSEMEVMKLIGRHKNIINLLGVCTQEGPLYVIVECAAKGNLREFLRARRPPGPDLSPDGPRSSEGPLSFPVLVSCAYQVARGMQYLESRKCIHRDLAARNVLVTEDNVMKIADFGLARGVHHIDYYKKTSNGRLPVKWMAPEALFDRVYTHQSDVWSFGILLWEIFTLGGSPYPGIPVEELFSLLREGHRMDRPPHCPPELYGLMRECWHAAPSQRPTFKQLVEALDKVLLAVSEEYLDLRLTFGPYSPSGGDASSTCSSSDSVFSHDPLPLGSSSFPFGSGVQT
CO[C@H]1C[C@@H]2CC[C@@H](C)[C@@](O)(O2)C(=O)C(=O)N2CCCC[C@H]2C(=O)O[C@H]([C@H](C)C[C@@H]2CC[C@@H](O)[C@H](OC)C2)CC(=O)[C@H](C)/C=C(\C)[C@@H](O)[C@@H](OC)C(=O)[C@H](C)C[C@H](C)/C=C/C=C/C=C/1C: 76.6%
N#CC(C#N)=C(N)/C(C#N)=C/c1ccc(O)cc1: 91.1%
Cc1ccc(NC(=O)c2ccc(CN3CCN(C)CC3)cc2)cc1Nc1nc(-c2cccnc2)cs1: 89.8%
Cn1sc(=O)n(Cc2ccccc2)c1=O: 97.2%
OCC(O)CCON=C1C(c2c(O)[nH]c3ccccc23)=Nc2ccccc21 (stereo not shown): 65.7%
CN(C)c1ccc(C=C2C(=O)Nc3ccccc32)cc1: 97.4%
COc1cc2ncnc(Nc3ccc(Oc4ccccc4)cc3)c2cc1OC: 77.8%
O=c1c2ccccc2[nH]c(=S)n1CCN1CCC(=C(c2ccc(F)cc2)c2ccc(F)cc2)CC1: 105%
Nc1ncnc2n[nH]c(Nc3ccc(F)cc3)c12: 107%
NCCNc1ncc(C(N)=O)c(Nc2cccc(C(F)(F)F)c2)n1: 76.2%
O=C1NC(=O)C(c2cn(CCCn3ccnc3)c3ccccc23)=C1Nc1ccccc1: 74.6%
Cn1c2ccccc2c2c3c(c4c5ccccc5n(CCC#N)c4c21)CNC3=O: 86.5%
CNC(=O)c1cc(Oc2ccc(NC(=O)Nc3ccc(Cl)c(C(F)(F)F)c3)cc2)ccn1: 104%
Cc1cccc(-c2[nH]c(C(C)(C)C)nc2-c2ccc3c(c2)OCO3)n1: 73.8%
Nc1[nH]nc2nc3ccccc3nc12: 94.9%

Sample 4 — technique: protein-binding microarray; molecule type: double-stranded DNA, one strand shown; medium: in vitro; concentration: 0.8 µM; notes: whole 60-bp probe, no competitor; reading: higher = stronger binding; measurement: fluorescence intensity; shared flanks, not repeated: … GTCTTGATTCGCTTGACGCTGCTG
Target: Centromere-binding protein 1, full length, N-terminal tag (CBF1, Saccharomyces cerevisiae, UniProt P17106, residues 1-351)
Sequence of UniProt P17106 (whole entry, looked up): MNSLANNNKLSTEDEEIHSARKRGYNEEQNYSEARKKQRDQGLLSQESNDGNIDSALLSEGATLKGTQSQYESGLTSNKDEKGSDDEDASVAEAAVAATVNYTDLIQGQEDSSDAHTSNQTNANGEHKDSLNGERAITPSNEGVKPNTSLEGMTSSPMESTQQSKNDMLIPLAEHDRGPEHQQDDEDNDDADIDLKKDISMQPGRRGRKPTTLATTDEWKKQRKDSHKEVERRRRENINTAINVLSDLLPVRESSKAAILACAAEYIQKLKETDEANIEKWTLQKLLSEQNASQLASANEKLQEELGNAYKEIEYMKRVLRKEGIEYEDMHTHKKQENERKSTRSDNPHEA
GAAAATGTACTTGCTGTCATGAGCTCCCTACTGTAG: 533 a.u.
CTATATCCTGGGCTGCACGTGATAATATGTTACTTC: 8490 a.u.
GAAGTTTGAACTCACGTGTTGCTGCTGAATTAGTAG: 4810 a.u.
CCTAACTACTATAAAAGCGTGTCATAGCTTCGTACA: 519 a.u.
GAAAAATCCCGTAAACTCATGATGTAAATTTTGTAG: 513 a.u.
GAACAACGCCTTTCCAACATGCACACAAAACCATAG: 565 a.u.
GAAATTTTCTAAGTTGGTCAGCTGTAATCTATCTAG: 627 a.u.
TGTACGAAGCTATCAGATGTGACTATAGTAGTTAGG: 533 a.u.

Some of these lines once more (sample 3):
NCCNc1ncc(C(N)=O)c(Nc2cccc(C(F)(F)F)c2)n1: 76.2%
O=C1NC(=O)C(c2cn(CCCn3ccnc3)c3ccccc23)=C1Nc1ccccc1: 74.6%
Cn1c2ccccc2c2c3c(c4c5ccccc5n(CCC#N)c4c21)CNC3=O: 86.5%
CNC(=O)c1cc(Oc2ccc(NC(=O)Nc3ccc(Cl)c(C(F)(F)F)c3)cc2)ccn1: 104%
Cc1cccc(-c2[nH]c(C(C)(C)C)nc2-c2ccc3c(c2)OCO3)n1: 73.8%
Nc1[nH]nc2nc3ccccc3nc12: 94.9%
